Measured values from different studies.
A part holds a random share of what one study measured. “And” joins repeats or separate records; there may be more than shown.
Chain of UniProt P23975 (whole entry, looked up): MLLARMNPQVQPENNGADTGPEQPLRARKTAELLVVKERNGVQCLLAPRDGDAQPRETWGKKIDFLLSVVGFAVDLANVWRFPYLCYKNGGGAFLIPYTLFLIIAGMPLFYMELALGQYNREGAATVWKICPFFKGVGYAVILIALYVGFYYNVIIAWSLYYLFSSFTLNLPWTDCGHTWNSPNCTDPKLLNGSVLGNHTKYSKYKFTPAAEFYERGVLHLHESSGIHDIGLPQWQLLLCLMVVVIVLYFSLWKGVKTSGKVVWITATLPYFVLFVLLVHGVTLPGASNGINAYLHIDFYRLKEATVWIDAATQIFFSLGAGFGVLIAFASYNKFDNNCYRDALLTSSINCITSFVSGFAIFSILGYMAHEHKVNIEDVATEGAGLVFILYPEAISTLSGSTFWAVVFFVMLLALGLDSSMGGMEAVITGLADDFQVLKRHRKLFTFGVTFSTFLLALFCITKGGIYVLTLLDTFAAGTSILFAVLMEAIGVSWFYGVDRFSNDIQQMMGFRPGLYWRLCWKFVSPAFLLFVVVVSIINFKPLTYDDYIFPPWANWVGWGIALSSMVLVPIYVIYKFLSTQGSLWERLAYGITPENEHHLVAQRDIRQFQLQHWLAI
Chain of UniProt P20309 (whole entry, looked up): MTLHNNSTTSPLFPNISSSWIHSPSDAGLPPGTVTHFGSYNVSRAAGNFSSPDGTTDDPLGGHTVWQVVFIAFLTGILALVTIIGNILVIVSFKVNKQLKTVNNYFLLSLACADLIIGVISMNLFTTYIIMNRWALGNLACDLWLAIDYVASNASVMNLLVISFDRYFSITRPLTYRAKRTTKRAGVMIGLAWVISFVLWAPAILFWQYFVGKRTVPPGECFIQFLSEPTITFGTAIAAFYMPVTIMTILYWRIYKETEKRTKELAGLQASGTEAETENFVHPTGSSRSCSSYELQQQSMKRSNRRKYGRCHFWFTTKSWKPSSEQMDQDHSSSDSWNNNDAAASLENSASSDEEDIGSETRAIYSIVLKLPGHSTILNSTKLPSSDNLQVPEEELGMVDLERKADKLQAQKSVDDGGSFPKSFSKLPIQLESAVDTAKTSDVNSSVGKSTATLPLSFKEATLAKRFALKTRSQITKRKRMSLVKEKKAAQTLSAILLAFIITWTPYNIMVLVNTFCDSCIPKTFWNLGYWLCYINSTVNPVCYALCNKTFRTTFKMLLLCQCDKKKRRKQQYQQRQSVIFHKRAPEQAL
Chain of UniProt P41145 (whole entry, looked up): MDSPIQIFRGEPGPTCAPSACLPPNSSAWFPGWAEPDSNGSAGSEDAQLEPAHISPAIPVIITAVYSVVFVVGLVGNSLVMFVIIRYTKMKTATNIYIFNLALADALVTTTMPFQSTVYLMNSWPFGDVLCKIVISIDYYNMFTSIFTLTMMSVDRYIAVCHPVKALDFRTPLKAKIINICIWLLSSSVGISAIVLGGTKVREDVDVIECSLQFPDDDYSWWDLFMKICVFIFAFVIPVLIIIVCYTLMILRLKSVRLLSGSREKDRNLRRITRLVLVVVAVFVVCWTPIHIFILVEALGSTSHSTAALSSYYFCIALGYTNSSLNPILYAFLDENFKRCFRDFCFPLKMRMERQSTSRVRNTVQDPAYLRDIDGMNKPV
Chain of UniProt P11229 (whole entry, looked up): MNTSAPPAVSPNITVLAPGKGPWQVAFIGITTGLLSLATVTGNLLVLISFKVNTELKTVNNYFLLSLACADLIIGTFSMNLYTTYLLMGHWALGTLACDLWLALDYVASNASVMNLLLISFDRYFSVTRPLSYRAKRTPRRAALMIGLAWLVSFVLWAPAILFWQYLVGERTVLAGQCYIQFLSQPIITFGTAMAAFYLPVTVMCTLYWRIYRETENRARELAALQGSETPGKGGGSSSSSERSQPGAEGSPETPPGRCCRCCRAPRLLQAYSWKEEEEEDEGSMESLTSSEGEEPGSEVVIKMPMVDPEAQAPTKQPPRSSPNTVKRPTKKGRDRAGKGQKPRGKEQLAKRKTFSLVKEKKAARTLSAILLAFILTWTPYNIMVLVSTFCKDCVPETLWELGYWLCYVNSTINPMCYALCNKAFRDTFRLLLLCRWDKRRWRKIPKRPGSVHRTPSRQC

Series 1 — organism: Cryptosporidium parvum; host: neonatal calves; dose: dose not given
Structure (SMILES): CNC(=O)c1ccc(-c2cnn3ccc(C(=O)N(C)c4ccc(Cl)c(C(=O)OC)c4)cc23)cc1
It gave 0 oocysts/g feces and 1 oocysts/g feces and 62 oocysts/g feces for “fecal oocyst count” (qPCR; day 10 post-treatment).
qPCR; day 11 post-treatment — “fecal oocyst count”: 231 oocysts/g feces and 0 oocysts/g feces.
For day 3 post-treatment: “fecal oocyst count” read 1250 oocysts/g feces and 12600 oocysts/g feces and 4870 oocysts/g feces and 4860 oocysts/g feces and 4060 oocysts/g feces and 74 oocysts/g feces.
qPCR; day 5 post-treatment — “fecal oocyst count”: 129 oocysts/g feces and 2220 oocysts/g feces and 225 oocysts/g feces and 61 oocysts/g feces and 218 oocysts/g feces and 10800 oocysts/g feces and 5710 oocysts/g feces.
For day 7 post-treatment: “fecal oocyst count” read 27 oocysts/g feces and 0 oocysts/g feces and 247 oocysts/g feces and 40 oocysts/g feces and 17 oocysts/g feces and 244 oocysts/g feces.
The “fecal oocyst count” was 0 oocysts/g feces and 19 oocysts/g feces (qPCR; day 12 post-treatment).
day 2 post-treatment — “fecal oocyst count”: 133000 oocysts/g feces and 1830 oocysts/g feces and 10200 oocysts/g feces and 61 oocysts/g feces and 97700 oocysts/g feces and 4360 oocysts/g feces and 573 oocysts/g feces.
For day 4 post-treatment: “fecal oocyst count” read 18000 oocysts/g feces and 1160 oocysts/g feces and 1550 oocysts/g feces and 54 oocysts/g feces.
qPCR; day 0 post-treatment — “fecal oocyst count”: 10600 oocysts/g feces and 126000 oocysts/g feces and 89800 oocysts/g feces and 30700 oocysts/g feces and 77100 oocysts/g feces and 27600 oocysts/g feces and 3520 oocysts/g feces.
It gave 0 oocysts/g feces and 285 oocysts/g feces and 6 oocysts/g feces and 43 oocysts/g feces for “fecal oocyst count” (qPCR; day 9 post-treatment).

Series 2 — read-out: enzyme activity; action: inhibitor; concentration: 77 µM; reference: untreated
Target: DNA polymerase theta, ATPase domain (POLQ, Homo sapiens, UniProt O75417)
Chain of UniProt O75417 (whole entry, unmodified, looked up): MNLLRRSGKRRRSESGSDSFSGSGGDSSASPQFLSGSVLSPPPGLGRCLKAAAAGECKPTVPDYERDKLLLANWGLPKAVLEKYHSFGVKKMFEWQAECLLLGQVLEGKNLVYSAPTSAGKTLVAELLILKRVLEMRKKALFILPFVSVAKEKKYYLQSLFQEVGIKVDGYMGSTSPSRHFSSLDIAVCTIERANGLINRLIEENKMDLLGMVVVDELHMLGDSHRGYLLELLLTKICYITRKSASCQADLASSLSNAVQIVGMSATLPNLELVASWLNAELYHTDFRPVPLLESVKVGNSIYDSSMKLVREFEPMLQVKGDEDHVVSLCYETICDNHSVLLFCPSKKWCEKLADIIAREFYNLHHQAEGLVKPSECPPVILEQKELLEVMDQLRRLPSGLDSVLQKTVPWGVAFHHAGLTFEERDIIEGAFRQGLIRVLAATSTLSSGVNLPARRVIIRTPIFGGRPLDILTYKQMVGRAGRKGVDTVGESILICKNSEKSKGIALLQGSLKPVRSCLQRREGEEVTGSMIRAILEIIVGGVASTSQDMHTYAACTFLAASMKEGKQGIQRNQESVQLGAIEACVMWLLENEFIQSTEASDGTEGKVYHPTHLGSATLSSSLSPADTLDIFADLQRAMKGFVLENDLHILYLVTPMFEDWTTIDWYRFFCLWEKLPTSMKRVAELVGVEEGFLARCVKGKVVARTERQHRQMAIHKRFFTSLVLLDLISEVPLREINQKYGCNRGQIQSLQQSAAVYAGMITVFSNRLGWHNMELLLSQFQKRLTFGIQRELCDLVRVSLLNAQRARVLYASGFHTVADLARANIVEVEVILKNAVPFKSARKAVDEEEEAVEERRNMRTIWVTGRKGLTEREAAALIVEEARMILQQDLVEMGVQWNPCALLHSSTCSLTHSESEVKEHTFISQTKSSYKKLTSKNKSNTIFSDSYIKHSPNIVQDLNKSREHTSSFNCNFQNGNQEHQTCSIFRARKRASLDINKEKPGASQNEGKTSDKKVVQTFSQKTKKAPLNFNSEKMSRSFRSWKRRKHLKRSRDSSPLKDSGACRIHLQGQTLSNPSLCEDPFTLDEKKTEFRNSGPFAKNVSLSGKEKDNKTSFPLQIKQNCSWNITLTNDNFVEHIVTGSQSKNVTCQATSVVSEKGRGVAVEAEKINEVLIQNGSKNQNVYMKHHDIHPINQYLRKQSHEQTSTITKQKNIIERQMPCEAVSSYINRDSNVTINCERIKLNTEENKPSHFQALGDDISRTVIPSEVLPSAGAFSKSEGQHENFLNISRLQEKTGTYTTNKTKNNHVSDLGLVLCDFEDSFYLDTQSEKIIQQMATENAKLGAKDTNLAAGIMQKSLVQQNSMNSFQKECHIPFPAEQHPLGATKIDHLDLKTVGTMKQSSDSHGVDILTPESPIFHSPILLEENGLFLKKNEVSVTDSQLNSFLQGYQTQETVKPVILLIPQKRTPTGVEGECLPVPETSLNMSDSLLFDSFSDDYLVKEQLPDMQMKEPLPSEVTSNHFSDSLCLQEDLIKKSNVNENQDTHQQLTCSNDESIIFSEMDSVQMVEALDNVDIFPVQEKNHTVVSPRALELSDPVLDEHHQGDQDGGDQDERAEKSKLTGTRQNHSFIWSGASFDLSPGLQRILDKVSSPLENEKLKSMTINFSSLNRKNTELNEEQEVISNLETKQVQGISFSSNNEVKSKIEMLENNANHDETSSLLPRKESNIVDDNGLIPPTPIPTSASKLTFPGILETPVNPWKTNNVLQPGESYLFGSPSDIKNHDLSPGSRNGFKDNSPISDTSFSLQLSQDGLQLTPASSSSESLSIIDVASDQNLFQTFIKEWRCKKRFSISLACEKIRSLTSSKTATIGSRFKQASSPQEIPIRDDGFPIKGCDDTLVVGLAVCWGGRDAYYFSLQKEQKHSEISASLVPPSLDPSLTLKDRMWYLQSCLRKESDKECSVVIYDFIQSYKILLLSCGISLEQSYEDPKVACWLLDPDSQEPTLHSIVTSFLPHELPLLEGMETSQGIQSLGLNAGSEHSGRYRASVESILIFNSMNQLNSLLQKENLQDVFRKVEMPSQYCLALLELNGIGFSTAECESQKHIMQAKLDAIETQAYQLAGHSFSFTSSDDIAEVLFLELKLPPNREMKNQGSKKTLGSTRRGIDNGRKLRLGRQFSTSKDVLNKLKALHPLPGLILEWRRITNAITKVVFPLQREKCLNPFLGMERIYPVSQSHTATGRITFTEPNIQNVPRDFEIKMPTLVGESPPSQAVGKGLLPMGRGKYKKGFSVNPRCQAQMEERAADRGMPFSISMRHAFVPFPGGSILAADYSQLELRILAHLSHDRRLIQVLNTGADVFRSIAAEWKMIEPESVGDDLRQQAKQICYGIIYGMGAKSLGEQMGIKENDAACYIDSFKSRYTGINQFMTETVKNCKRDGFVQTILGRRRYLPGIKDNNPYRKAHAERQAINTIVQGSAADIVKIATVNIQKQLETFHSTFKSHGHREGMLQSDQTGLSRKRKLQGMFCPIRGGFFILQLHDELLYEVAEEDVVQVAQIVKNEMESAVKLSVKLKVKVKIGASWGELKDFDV
`c1cncc(C2=NCCC2)c1` has a remaining activity of 98.5%.
`Nc1ccncc1` has a remaining activity of 88.2%.
`CS(=N)(=O)CC[C@H](N)C(=O)O` (some centres unmarked) gave a remaining activity of 101%.
`COC(=O)[C@@H](N)CCCNC(=N)N[N+](=O)[O-]` gave a remaining activity of 103%.
The remaining activity of `Oc1ccc2c3c1O[C@H]1c4[nH]c5ccccc5c4C[C@@]4(O)[C@@H](C2)N(CC2CC2)CC[C@]314` is reported as 105%.

Series 3 — concentration: 10 µM
Structure (SMILES): CO[C@@H](C)c1c(Nc2ccc([C@H](N(C)C(=O)C3CCS(=O)(=O)CC3)C(F)(F)F)cc2)cnc2cc(Cl)nn12
Sodium-dependent noradrenaline transporter (SLC6A2, Homo sapiens, UniProt P23975); cell-free assay — inhibition: -28.4%.
The inhibition was -12.6% (Muscarinic acetylcholine receptor M1 (CHRM1, Homo sapiens, UniProt P11229); ligand displacement).
The inhibition was -17.4% (Sodium-dependent dopamine transporter (SLC6A3, Homo sapiens, UniProt Q01959); cell-free assay).
For Muscarinic acetylcholine receptor M3 (CHRM3, Homo sapiens, UniProt P20309); ligand displacement: inhibition read -8.44%.
For Kappa-type opioid receptor (OPRK1, Homo sapiens, UniProt P41145); ligand displacement: inhibition read 31.9%.

Series 4 — cell line: HEK-293T-ACE2-TMPRSS2; method: cell count; concentration: 10 µM
`CC(C)c1cc(C(=O)N2Cc3ccc(CN4CCN(C)CC4)cc3C2)c(O)cc1O` has a viability of 113%.
With `COc1cccc(NC(=O)CCC2CCN(C(=O)C(C)n3cncn3)CC2)c1` (centres unmarked) the viability was 104%.
`COCc1noc([C@@H]2CN(C3CCN(CC(C)C)CC3)C[C@H]2CO)n1` has a viability of 98%.
With `COC[C@@H]1CN(C(=O)CC(C)C)C[C@H]1c1nc(C)no1` the viability was 99%.
`CCN(CCn1cccn1)C(=O)c1ccc(OC2CCN(C(=O)C3CC3)CC2)cc1` gave a viability of 109%.
For `Cc1cc(C(=O)NC2CC(=O)N(Cc3ccccc3Cl)C2)nc(C)n1` (centres unmarked), the viability was 96%.
For `O=C(c1ccc(N2CCC(CO)C2)nc1)N1CCC(CCc2ccccc2)CC1` (centres unmarked), the viability was 81%.
The viability of `O=C(c1ccncc1F)N1CC(F)(F)C[C@H]1c1nc(C2CC2)no1` is reported as 107%.
For `CC(c1cccs1)N(C)C(=O)c1ccc(OC2CCN(Cc3ccccn3)CC2)cc1` (centres unmarked), the viability was 111%.
`C=C(C)COc1ccc(C(=O)N2CCOCC2CCC)cc1` (centres unmarked) has a viability of 65%.
With `COc1ccc(NC(=O)N2c3ccccc3CC2c2nc(C(C)C)no2)c(C)c1` (centres unmarked) the viability was 91%.
`Cc1ccc(NC2CCCN(C(=O)c3scc4c3OCCO4)C2)cc1C` (centres unmarked) has a viability of 108%.

A few entries again (series 3):
The inhibition was -12.6% (Muscarinic acetylcholine receptor M1 (CHRM1, Homo sapiens, UniProt P11229); ligand displacement).
For Muscarinic acetylcholine receptor M3 (CHRM3, Homo sapiens, UniProt P20309); ligand displacement: inhibition read -8.44%.
Sodium-dependent noradrenaline transporter (SLC6A2, Homo sapiens, UniProt P23975); cell-free assay — inhibition: -28.4%.
